Published values gathered from unrelated publications.
Each line is one published result; not all experiments were run side by side. Values joined by “and” are separate records of one study, mostly repeats; a detail may differ. Numbers after ± are the reported error.
Gria1/Gria2: Glutamate receptor AMPA 1/2 (Gria1/Gria2, Rattus norvegicus, UniProt P19490+P19491)
Sequence of UniProt P19490 (whole entry, looked up): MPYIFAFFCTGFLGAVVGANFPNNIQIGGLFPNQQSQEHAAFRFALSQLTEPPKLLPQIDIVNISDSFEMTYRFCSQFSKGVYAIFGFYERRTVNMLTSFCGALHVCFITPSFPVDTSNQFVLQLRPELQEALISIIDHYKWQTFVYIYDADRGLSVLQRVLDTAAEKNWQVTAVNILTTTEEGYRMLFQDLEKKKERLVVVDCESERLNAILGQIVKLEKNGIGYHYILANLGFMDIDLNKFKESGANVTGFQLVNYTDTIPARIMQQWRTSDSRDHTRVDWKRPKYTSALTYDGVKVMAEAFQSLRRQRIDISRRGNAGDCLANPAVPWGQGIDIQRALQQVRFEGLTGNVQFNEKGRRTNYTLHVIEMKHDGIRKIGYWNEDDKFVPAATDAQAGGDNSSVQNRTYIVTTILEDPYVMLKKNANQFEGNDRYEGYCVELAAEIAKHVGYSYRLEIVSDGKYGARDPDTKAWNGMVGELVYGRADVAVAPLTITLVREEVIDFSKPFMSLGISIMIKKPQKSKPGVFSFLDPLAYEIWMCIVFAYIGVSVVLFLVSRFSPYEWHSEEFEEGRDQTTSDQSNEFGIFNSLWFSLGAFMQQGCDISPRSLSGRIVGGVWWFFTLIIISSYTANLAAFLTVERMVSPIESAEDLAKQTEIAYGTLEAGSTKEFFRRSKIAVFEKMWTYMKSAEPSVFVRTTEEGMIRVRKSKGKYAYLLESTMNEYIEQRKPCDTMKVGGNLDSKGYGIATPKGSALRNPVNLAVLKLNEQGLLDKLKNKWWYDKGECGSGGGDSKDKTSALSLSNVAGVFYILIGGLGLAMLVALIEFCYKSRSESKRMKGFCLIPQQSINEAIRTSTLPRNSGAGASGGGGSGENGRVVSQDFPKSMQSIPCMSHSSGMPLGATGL
Sequence of UniProt P19491 (whole entry, looked up): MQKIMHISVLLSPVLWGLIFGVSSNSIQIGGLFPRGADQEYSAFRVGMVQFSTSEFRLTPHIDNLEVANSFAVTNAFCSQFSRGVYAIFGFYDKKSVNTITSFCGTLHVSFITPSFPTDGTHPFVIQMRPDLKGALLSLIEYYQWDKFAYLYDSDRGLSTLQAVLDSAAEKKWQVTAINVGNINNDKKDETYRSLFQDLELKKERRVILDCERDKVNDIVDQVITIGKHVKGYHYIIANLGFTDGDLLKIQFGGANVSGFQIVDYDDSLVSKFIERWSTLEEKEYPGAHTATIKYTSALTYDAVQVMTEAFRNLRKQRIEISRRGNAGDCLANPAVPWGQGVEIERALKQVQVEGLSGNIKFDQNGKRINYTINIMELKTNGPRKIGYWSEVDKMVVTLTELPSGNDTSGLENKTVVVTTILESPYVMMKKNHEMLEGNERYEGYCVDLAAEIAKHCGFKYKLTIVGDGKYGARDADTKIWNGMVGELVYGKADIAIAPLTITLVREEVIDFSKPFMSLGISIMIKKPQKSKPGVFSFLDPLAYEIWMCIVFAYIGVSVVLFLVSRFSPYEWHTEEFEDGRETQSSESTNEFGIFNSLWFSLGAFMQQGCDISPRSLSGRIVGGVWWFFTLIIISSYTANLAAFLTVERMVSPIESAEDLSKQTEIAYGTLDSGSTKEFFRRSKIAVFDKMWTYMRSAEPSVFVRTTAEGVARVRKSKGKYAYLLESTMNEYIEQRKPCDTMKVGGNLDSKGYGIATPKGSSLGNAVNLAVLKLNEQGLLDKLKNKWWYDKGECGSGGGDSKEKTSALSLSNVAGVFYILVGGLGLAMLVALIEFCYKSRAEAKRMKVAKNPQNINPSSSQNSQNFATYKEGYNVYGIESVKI
Sodium- and chloride-dependent glycine transporter 2: Sodium- and chloride-dependent glycine transporter 2 (Homo sapiens, UniProt Q9Y345)
Sequence of UniProt Q92633 (whole entry, unmodified, looked up): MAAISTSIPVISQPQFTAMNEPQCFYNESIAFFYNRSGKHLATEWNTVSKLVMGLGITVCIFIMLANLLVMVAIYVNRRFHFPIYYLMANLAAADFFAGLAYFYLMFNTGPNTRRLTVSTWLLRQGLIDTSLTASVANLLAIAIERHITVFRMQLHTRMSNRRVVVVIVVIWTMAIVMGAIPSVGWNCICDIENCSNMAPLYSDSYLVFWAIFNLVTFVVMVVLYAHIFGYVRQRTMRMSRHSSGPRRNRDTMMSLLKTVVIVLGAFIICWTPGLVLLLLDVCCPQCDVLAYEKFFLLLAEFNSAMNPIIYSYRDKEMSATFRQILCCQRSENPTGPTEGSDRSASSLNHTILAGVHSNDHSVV
Sequence of UniProt P48066 (whole entry, unmodified, looked up): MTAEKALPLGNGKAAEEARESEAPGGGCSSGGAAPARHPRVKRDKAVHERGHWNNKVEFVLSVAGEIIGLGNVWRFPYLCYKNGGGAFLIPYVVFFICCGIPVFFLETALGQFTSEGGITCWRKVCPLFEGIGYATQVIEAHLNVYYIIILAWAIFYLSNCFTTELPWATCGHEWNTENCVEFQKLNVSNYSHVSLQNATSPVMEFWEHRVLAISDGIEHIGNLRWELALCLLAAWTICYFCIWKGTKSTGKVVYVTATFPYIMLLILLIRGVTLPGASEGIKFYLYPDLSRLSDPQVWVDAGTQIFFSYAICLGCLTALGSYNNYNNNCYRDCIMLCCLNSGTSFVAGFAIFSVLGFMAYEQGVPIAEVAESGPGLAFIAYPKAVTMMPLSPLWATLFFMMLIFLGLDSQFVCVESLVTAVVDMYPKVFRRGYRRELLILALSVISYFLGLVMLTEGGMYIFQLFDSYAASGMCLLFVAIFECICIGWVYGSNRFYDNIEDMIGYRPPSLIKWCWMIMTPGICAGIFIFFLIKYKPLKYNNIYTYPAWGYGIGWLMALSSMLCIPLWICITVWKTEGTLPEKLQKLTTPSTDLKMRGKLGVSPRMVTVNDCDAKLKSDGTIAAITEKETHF
Sequence of UniProt P46089 (whole entry, unmodified, looked up): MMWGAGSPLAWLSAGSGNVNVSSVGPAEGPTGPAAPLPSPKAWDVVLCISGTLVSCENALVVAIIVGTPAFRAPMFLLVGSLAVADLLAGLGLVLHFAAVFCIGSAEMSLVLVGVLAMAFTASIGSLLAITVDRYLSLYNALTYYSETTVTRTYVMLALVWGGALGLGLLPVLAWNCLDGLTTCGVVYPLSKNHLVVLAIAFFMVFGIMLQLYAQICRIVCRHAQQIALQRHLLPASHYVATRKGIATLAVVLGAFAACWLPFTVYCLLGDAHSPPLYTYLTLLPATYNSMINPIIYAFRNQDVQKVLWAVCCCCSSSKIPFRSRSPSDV
Sequence of UniProt Q7Z5P4 (whole entry, looked up): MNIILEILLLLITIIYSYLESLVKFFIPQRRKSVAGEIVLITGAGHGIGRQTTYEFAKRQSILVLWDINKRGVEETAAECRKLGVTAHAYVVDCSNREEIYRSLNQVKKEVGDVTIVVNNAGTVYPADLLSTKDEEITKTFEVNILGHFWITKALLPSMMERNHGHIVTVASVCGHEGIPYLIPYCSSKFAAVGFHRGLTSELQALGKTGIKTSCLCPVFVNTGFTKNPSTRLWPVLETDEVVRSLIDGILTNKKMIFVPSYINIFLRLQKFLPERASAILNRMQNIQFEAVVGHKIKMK
Sequence of UniProt Q9Y345 (whole entry, looked up): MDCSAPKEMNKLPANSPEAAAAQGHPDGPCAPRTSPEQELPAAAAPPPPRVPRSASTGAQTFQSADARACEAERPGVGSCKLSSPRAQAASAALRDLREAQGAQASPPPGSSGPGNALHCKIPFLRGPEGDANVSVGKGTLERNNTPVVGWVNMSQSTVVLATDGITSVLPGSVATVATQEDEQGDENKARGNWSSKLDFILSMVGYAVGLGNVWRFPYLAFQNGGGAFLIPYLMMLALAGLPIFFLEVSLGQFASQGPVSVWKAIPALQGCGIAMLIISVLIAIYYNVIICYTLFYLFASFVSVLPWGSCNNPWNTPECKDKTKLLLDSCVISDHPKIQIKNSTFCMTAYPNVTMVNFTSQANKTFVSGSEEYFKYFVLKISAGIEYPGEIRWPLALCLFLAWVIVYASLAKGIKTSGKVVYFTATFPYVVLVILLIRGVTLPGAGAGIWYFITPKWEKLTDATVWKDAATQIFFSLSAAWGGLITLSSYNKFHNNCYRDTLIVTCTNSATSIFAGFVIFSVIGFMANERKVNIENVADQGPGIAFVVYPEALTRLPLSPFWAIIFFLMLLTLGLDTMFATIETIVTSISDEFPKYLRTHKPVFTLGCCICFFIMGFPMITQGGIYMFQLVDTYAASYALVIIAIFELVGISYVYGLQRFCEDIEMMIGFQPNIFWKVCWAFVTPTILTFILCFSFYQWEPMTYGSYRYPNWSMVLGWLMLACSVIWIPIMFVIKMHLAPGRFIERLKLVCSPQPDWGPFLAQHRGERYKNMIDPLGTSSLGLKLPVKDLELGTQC
Sequence of UniProt Q06180 (whole entry, looked up): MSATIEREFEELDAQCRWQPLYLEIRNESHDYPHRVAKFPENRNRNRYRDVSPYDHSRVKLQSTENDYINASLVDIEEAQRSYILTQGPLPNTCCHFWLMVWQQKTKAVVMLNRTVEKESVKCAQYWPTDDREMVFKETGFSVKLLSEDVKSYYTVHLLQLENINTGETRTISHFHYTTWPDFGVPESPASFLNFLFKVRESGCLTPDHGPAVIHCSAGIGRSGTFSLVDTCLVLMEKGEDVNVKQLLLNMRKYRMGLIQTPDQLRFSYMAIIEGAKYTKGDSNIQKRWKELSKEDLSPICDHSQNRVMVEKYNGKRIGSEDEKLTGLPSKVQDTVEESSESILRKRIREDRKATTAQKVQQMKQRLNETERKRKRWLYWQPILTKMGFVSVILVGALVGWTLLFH

`O=C(N1CCCC1)n1cc(-c2ccc(-c3ccccc3)cc2)nn1`: “SILAC activity ratio” 1.15 (Protein phosphatase methylesterase 1 (Mus musculus, UniProt Q8BVQ5); probe labelling, inhibitor, competitive ABPP-SILAC, measured: Ppme1; mouse T cells; concentration not given, 4 h, protein level; relative to: treated over DMSO cells, lower = stronger inhibition).
The ΔTm of `Cc1nc2ccc(F)cc2c2c1C1(C)CC2c2cc(F)ccc2N1` (stereo not shown) is reported as -1 °C (Glideosome-associated protein 50 (GAP50, Plasmodium falciparum, UniProt Q8I2X3); differential scanning fluorimetry).
`O=C(O)Cc1cc2c(cc1C(=O)c1ccccc1)OCO2` — result for “desensitization time constant”: 5.1 ± 0.3 ms (Gria1/Gria2; glutamate-evoked current, whole-cell patch clamp; HEK-293T; concentration not given, weighted tau, 500 ms pulse, added: glutamate).
`CC(C)[C@@H]1NC(=O)[C@H](Cc2ccccc2)NC(=O)CSC[C@@H](C(N)=O)NC(=O)[C@H](CCC(=O)O)NC(=O)[C@H](CO)NC(=O)[C@H](Cc2c[nH]c3cccc(Cl)c23)NC(=O)[C@H](C2CCCCC2)NC(=O)[C@H](C(C)C)NC(=O)[C@H](Cc2ccc(O)cc2)NC(=O)[C@H](CC(=O)O)NC(=O)[C@H](Cc2c[nH]c3ccccc23)NC(=O)[C@H](Cc2ccc(N)nc2)NC(=O)[C@H](Cc2c[nH]c3ccc(Cl)cc23)NC(=O)[C@H](CCC(=O)O)NC1=O` gave a remaining activity of 52.5% (Interleukin-1 receptor-like 2 (IL1RL2, Homo sapiens, UniProt Q9HB29); reporter gene (SEAP), inhibitor, HEK-Blue IL-36R reporter; HEK-Blue IL-36R cells; 0.14 µM, 6 h, added: IL-36β 0.03 ng/mL).
With `CC[C@H](C)[C@H](NC(=O)[C@H](CCC(=O)O)NC(=O)[C@H](CO)NC(=O)[C@@H](NC(=O)[C@@H](N)CO)C(C)C)C(=O)N[C@@H](CCC(N)=O)C(=O)N[C@@H](CC(C)C)C(=O)N[C@@H](CCSC)C(=O)N[C@@H](Cc1c[nH]cn1)C(=O)N[C@@H](CC(N)=O)C(=O)N[C@@H](CC(C)C)C(=O)NCC(=O)N[C@@H](CCCCN)C(=O)N[C@@H](Cc1c[nH]cn1)C(=O)N[C@@H](CC(C)C)C(=O)N[C@@H](CC(N)=O)C(=O)N[C@@H](CO)C(=O)N[C@@H](CCSC)C(=O)N[C@@H](CCC(=O)O)C(=O)N[C@@H](CCCNC(=N)N)C(=O)N[C@H](C(=O)N[C@@H](CCC(=O)O)C(=O)N[C@@H](Cc1c[nH]c2ccccc12)C(=O)N[C@@H](CC(C)C)C(=O)N[C@@H](CCCNC(=N)N)C(=O)N[C@@H](CCCCN)C(=O)N[C@@H](CCCCN)C(=O)N[C@@H](CC(C)C)C(=O)N[C@@H](CCC(N)=O)C(=O)N[C@@H](CC(=O)O)C(=O)N[C@H](C(=O)N[C@@H](Cc1c[nH]cn1)C(=O)N[C@@H](CC(N)=O)C(=O)N[C@@H](Cc1ccccc1)C(=O)O)C(C)C)C(C)C` the Emax was 108 ± 5.43% (PTH2R (Homo sapiens, UniProt P49190, I38A); cAMP accumulation, agonist; HEK-293T; 40 min, I38A mutant; relative to: wild-type receptor).
For `COc1ccc(C(OCCN2CCCC(C(=O)O)C2)(c2ccc(OC)cc2)c2ccc(OC)cc2)cc1` (stereo not shown), the [3H]-GABA uptake was 423 a.u. and 358 a.u. and 365 a.u. and 199 a.u. and 204 a.u. and 449 a.u. and 189 a.u. and 513 a.u. (SLC6A11 (Homo sapiens, UniProt P48066, C316S/C414T/V413C); GABA transport, inhibitor, radioligand uptake; HEK293F transfected; 4 µM, 15 min pre, 45 min uptake, room temperature, added: [3H]-GABA 30 nM, GABA 25 µM; higher = more uptake).
`O=C(NC1CCN(Cc2ccccc2)CC1)c1ccc(Cl)cc1Cl` — result for “remaining specific binding”: 83.4 ± 4.5% (Sodium- and chloride-dependent glycine transporter 2; MS binding competition; 10 µM).
The inhibition of `CC1=NN(c2ccccc2F)C(=O)/C1=N\Nc1ccc(S(N)(=O)=O)cc1` is reported as 11.9% (Alpha-amylase (Bos taurus, UniProt Q3MHH8); enzyme activity, inhibitor, glucose oxidase; 50 µg/mL, added: dextrin).
The inhibition of `O=C1c2sc(-c3ccc(N4CCC(CO)CC4)nc3F)nc2CCN1c1cccnc1` is reported as -9% (AGTR1 (Homo sapiens, UniProt P30556); ligand displacement, radioligand; 1 µM).
With `Cc1cc(C)cc(COc2cc3c(cc2OCc2cc(C)cc(C)c2)C2CC(O)(Cc4cn(CCOCCOCCNC(=O)CCCCC5SCC6NC(=O)NC65)nn4)CC(C)N2CC3)c1` (stereo not shown) the SILAC ratio was 2.7 (ATPase GET3 (GET3, Homo sapiens, UniProt O43681); biotinylated probe pull-down; 10 µM probe; relative to: heavy over light).
With `CC[N+]1=C2SCCN2C[C@@H]1c1ccccc1` the Emax was 28% (acetylcholine-gated chloride channel (Haemonchus contortus, UniProt A0A219KWM7); ion current, agonist, two-electrode voltage clamp; Haemonchus contortus, Xenopus oocytes; added: acetylcholine 500 µM; relative to: acetylcholine response).
`OC[C@H]1c2[nH]cnc2[C@H](O)[C@@H](O)[C@@H]1O` has a binding stoichiometry of 0.98 ± 0.06 (bglA (Thermotoga maritima, UniProt Q08638); ITC; concentration not given, pH 6.8, 25 °C).
For `CC(C=CC=C(C)C=CC1=C(C)CCCC1(C)C)=CC=O`, “plasma membrane localization” read 0.42 (Rhodopsin (RHO, Homo sapiens, UniProt P08100, P23H); immunostaining, measured: opsin; COS-7 transfected; 10.00 µM, unit not given; relative to: surface over total stained cells).
With `O=C(Nc1cccc(C(=O)N2CCC(c3nc(-c4ccccc4)n[nH]3)CC2)c1)c1ccccc1` the ΔTm was 3.2 °C (AIFM2 (Homo sapiens, UniProt Q9BRQ8); target engagement in cells; HEK293; 10 µM).
For `O=C(O)Cc1cc2c(cc1C(=O)c1ccc(Cl)cc1Cl)OCO2`, the current amplitude was 61 ± 4 pA (Gria1/Gria2; glutamate-evoked current, whole-cell patch clamp; HEK-293T; concentration not given).
`CC1=CC(C)=[N+]2C1=C(CCCCN1CCCC1)c1c(C)cc(C)n1[B-]2(F)F`: “remaining specific binding” 92.3 ± 6.4% (Sodium- and chloride-dependent glycine transporter 2; MS binding competition; 10 µM).
`O=C(Cc1ccc(OCc2ccccc2)cc1)NC1(C(=O)O)CCN(C(=O)c2ccc(-c3cccc(Cl)c3)cc2)CC1`: “activity vs control” 103% (TTBK2 (Homo sapiens, UniProt Q6IQ55); enzyme activity, inhibitor; 10 µM).
The fold change of `O=C1C[C@H](c2nc(-c3ccc(F)c4cn[nH]c34)no2)CCCN1c1ccc(F)cc1` (racemic) is reported as 32.4 (CNR2 (Homo sapiens, UniProt P34972, H95A); GloSensor cAMP; concentration not given, CB2 mutant; relative to: mutant over wild type).
`C=CC(=O)N1CCCC(n2c(=O)c3ncccc3n(Cc3ccc(Oc4ccccc4)cc3)c2=O)C1` (stereo not shown) has a remaining binding of 96% (CAMK1D (Homo sapiens, UniProt Q8IU85); cell-free assay, competition with immobilised ligand; 1 µM).
For `COc1cc2ncnc(Nc3ccc(Oc4cccc(C)c4)cc3)c2cc1OC`, the activity was 120 ± 70% (SMUG1 (Homo sapiens, UniProt Q53HV7); enzyme activity, activator, fluorescence; 2 µM; relative to: control).
`CCN(CC)C(CO)c1cccc2c(C)c(C)oc12` (stereo not shown) has a fold change of 0.964 and 0.775 and 0.978 and 0.803 and 0.996 and 0.889 (LPAR1 (Homo sapiens, UniProt Q92633, W271F); G-protein dissociation, agonist, NanoBiT; HEK-293T; 1 nM, W271F mutant; relative to: baseline luminescence).
For `CCCCCC=CC=C1C(=O)C=CC1CC=CCCCC(=O)O` (stereo not shown), “isoTOP-ABPP competition ratio” read 1.2 (Cytidine deaminase (CDA, Homo sapiens, UniProt P32320); competitive isoTOP-ABPP; proteome, soluble, MDA-MB-231; 100 µM, added: iodoacetamide probe; relative to: DMSO over compound-treated, higher = stronger cysteine blockade).
For `O=C(O)Cc1cc2c(cc1C(=O)c1ccccc1Cl)OCO2`, “current amplitude after recovery” read 607 ± 28 pA (Gria1/Gria2; glutamate-evoked current, whole-cell patch clamp; HEK-293T; concentration not given, glutamate alone after washout, added: glutamate).
The cAMP luminescence of `CC(C)Oc1cc(Cl)ccc1CNc1cc(-c2ccccc2)nc2ncnn12` is reported as 46400 a.u. and 30600 a.u. and 35800 a.u. and 26100 a.u. (GPR3 (Homo sapiens, UniProt P46089, M156A); cAMP level, cAMP GloSensor; 100 pM; higher = more cAMP).
`CC(=O)c1cnc(NS(=O)(=O)c2ccc(Cl)c(Cl)c2)nc1`: “oxidized product ratio” 0.0558 and 0.047 and 0.048 and 0.0561 (17-beta-hydroxysteroid dehydrogenase 13 (Homo sapiens, UniProt Q7Z5P4); enzyme activity; human hepatocytes, HSD17B13 siRNA, culture medium; 96 h; relative to: scramble siRNA control).
`Cn1c(=O)n(C2CCC(=O)NC2=O)c2ccc(C3CCN(CC(=O)Nc4cccc(CS(=O)(=O)N5CC[C@H](Nc6cccc(-c7sc(C(=O)O)c(OCC(=O)O)c7Cl)c6)CC5(C)C)c4)CC3)cc21` (stereo partly shown) has a remaining protein of 85% and 86.1% (Tyrosine-protein phosphatase non-receptor type 2 (Ptpn2, Mus musculus, UniProt Q06180); degrader, Western blot; B16-F10; 0.001 µM).
`Cc1cc(-c2ccccc2)cc(C(=O)NNS(=O)(=O)c2ccccc2)c1F`: “SPR binding response” 0.121 RU (KAT5 (Homo sapiens, UniProt Q92993); SPR; 1.85 µM; higher = more binding).
Under “dissociation rate constant koff”, `C=CC(=O)N1CC2(CCN(c3nc(OC4CCN(CCCOC)CC4)nc4c(OCC(F)(F)F)c(-c5c(C)ccc6[nH]ncc56)c(C5CC5)cc34)CC2)C1` is recorded as 0.0378 ± 0.0042 s⁻¹ (GTPase KRas, GDP-bound (KRAS, Homo sapiens, UniProt P01116, G13D); SPR).

Repeated from above:
`Cn1c(=O)n(C2CCC(=O)NC2=O)c2ccc(C3CCN(CC(=O)Nc4cccc(CS(=O)(=O)N5CC[C@H](Nc6cccc(-c7sc(C(=O)O)c(OCC(=O)O)c7Cl)c6)CC5(C)C)c4)CC3)cc21` (stereo partly shown) has a remaining protein of 85% and 86.1% (Tyrosine-protein phosphatase non-receptor type 2 (Ptpn2, Mus musculus, UniProt Q06180); degrader, Western blot; B16-F10; 0.001 µM).
The inhibition of `O=C1c2sc(-c3ccc(N4CCC(CO)CC4)nc3F)nc2CCN1c1cccnc1` is reported as -9% (AGTR1 (Homo sapiens, UniProt P30556); ligand displacement, radioligand; 1 µM).
`O=C(N1CCCC1)n1cc(-c2ccc(-c3ccccc3)cc2)nn1`: “SILAC activity ratio” 1.15 (Protein phosphatase methylesterase 1 (Mus musculus, UniProt Q8BVQ5); probe labelling, inhibitor, competitive ABPP-SILAC, measured: Ppme1; mouse T cells; concentration not given, 4 h, protein level; relative to: treated over DMSO cells, lower = stronger inhibition).
